Measurements gathered from unrelated publications.
Each line is one published result; not all experiments were run side by side. Numbers after ± are the reported error.

With `CC(C)COC1O[C@@H]2O[C@@]3(C)CC[C@H]4[C@H](C)CCC([C@H]1C)[C@@]24OO3` (stereo partly shown) the dead embryos was 1 count (Tg(fli1:EGFP) zebrafish embryos; 10 µg/mL, up to 48 hpf).
`CC[C@H](C)[C@@H]1NC(=O)[C@H](CCCCN)NC(=O)[C@H](CCCCN)NC(=O)[C@H](Cc2ccc(O)cc2)NC(=O)[C@H](CC(C)C)NC(=O)[C@@H]2CCCN2C(=O)[C@H](C)NC(=O)CNC(=O)CNC(=O)[C@H](CO)NC(=O)CNC(=O)CNC(=O)[C@H](CO)NC(=O)[C@H](CCC(=O)O)NC(=O)[C@H](CC(C)C)NC(=O)[C@H](CC(C)C)NC(=O)[C@H](CCCCN)NC(=O)[C@H](CCCCN)NC(=O)[C@H](C(C)C)NC(=O)[C@H]([C@@H](C)CC)NC(=O)[C@H](CCCCN)NC(=O)[C@H](CCCCN)NC(=O)[C@H](Cc2ccc(O)cc2)NC(=O)[C@H](CC(C)C)NC(=O)[C@@H]2CCCN2C(=O)CNC(=O)CNC(=O)[C@@H](NC(=O)CN)CSSC[C@@H](C(N)=O)NC(=O)[C@H](CC(C)C)NC(=O)[C@H](CCCCN)NC(=O)[C@H](CCCCN)NC(=O)[C@H](C(C)C)NC1=O` — result for “remaining intact peptide”: 17.4 ± 1% (25% human serum; 50 µM, 24 h; baseline: 0 h control).
`CC(C)[C@@H]1NC(=O)[C@H](Cc2ccccc2)NC(=O)[C@H](Cc2ccc(O)cc2)NC(=O)CCSSC[C@@H](C(=O)N2CCC[C@H]2C(=O)N[C@H](CCCNC(=N)N)C(=O)NCC(N)=O)NC(=O)[C@H](CCC(N)=O)NC1=O` gave an AST of 46.6 ± 20.1 IU/L (Wistar rat, blood; intravenous, 100 µg/kg single dose, 72 h).
With `CCCCCCCC(=O)OC[C@H](NC(=O)[C@H](CO)NC(=O)CN)C(=O)N[C@@H](Cc1ccccc1)C(=O)N[C@@H](CC(C)C)C(=O)N[C@@H](CO)C(=O)N1CCC[C@H]1C(=O)N[C@@H](CCC(=O)O)C(=O)N[C@@H](Cc1cnc[nH]1)C(=O)N[C@@H](CCC(N)=O)C(=O)N[C@@H](CCCNC(=N)N)C(=O)N[C@H](C(=O)N[C@@H](CCC(N)=O)C(=O)N[C@@H](CCC(N)=O)C(=O)N[C@@H](CCCNC(=N)N)C(=O)N[C@@H](CCCCN)C(=O)N[C@@H](CCC(=O)O)C(=O)N[C@@H](CO)C(=O)N[C@@H](CCCCN)C(=O)N[C@@H](CCCCN)C(=O)N1CCC[C@H]1C(=O)N1CCC[C@H]1C(=O)N[C@@H](C)C(=O)N[C@@H](CCCCN)C(=O)N[C@@H](CC(C)C)C(=O)N[C@@H](CCC(N)=O)C(=O)N1CCC[C@H]1C(=O)N[C@@H](CCCNC(=N)N)C(=O)O)C(C)C` the Cmax was 1.29 ± 1.12 ng/mL (two-site ELISA, item: DAG; human, plasma; intravenous infusion, 1 µg/kg/h, 210 min).
For `CN(C)c1ccc(OC(=O)NC2CCCCC2)cc1-c1ccccc1`, “log hydrolysis rate constant” read -0.86 (rat liver S9 fraction; added: NADPH-regenerating system).
`C#Cc1c(F)ccc2cc(O)cc(-c3ncc4c(N5CC6CCC(C5)N6C(=O)CC(C)CC(=O)OCC)nc(OC[C@@]56CCCN5C[C@H](F)C6)nc4c3F)c12` (stereo partly shown): “parent drug release” “not detected” (mouse whole blood; 60 min).
The tissue concentration of `[3H]c1sc(C)nc1C=C(C)C1CC2C(CCCC(C)C(O)C(C)C(=O)C(C)(C)C(O)CC(=O)O1)N2CCO` (stereo not shown) is reported as 3360 ± 90 ng/g (LC-MS/MS; CD2F1 mice tumour-bearing, kidney; intravenous, 2.2 nmol/kg, 2 h).
The MTD of `[CH3][Ti+2][O]C(=O)c1ccc([S][Au][PH](c2ccccc2)(c2ccccc2)c2ccccc2)cc1.c1cc[cH-]c1.c1cc[cH-]c1` is reported as 5 mg/kg/day (C57BL/6 mice; 7 days).
The adverse events of `[2H]C([2H])([2H])C([2H])([2H])C([2H])([2H])OC(C(=O)OC1CCNCC1)(c1ccccc1)c1ccccc1` is reported as 14.3% (item: headache; healthy Japanese male; oral, 10 mg, 16 days, multiple ascending dose).
For `O=c1cc(-c2ccccc2)oc2c(Br)c(O)c(O)c(O)c12`, “AUC extrapolated percentage” read 4.6 ± 1.1% (C57BL/6 mouse, plasma; po, 50 mg/kg).
`COc1ccc(F)cc1S(=O)(=O)Nc1cnc2c(c1)C(=O)NCCO2` gave a fraction unbound of 0.128 to 0.137 (monkey, plasma; 10 min).
The Tmax of `CC(C)C[C@H](NC(=O)[C@H](CCCCN)NC(=O)[C@H](CCC(=O)O)NC(=O)[C@H](C)NC(=O)[C@@H](NC(=O)[C@H](CCCCN)NC(=O)[C@H](CC(=O)O)NC(=O)[C@H](Cc1ccc(O)cc1)NC(=O)[C@H](Cc1ccccc1)NC(=O)[C@H](C)NC(=O)[C@H](CCCCN)NC(=O)[C@H](CC(C)C)NC(=O)[C@H](Cc1c[nH]c2ccccc12)NC(=O)[C@@H](N)CC(=O)O)C(C)C)C(=O)N[C@@H](CCCCN)C(=O)N[C@@H](CCC(=O)O)C(=O)N[C@@H](C)C(=O)N[C@@H](Cc1ccccc1)C(=O)N1CCC[C@H]1C(=O)N[C@@H](CC(=O)O)C(=O)N[C@@H](Cc1c[nH]c2ccccc12)C(=O)N[C@@H](C)C(=O)N[C@@H](CCCCN)C(=O)N[C@@H](C)C(=O)N[C@@H](C)C(=O)N[C@@H](Cc1ccc(O)cc1)C(=O)N[C@@H](CC(=O)O)C(=O)N[C@@H](CCCCN)C(=O)N[C@@H](C)C(=O)N[C@@H](C)C(=O)N[C@@H](CCC(=O)O)C(=O)N[C@@H](CCCCN)C(=O)N[C@@H](C)C(=O)N[C@@H](CCCCN)C(=O)N[C@@H](CCC(=O)O)C(=O)N[C@@H](C)C(=O)N[C@@H](C)C(=O)O` is reported as 0 h (cynomolgus monkey female, plasma; intravenous infusion, 8 mg/kg every other day, day 27).
Under “subjects with adverse events”, `CC(C)[C@H](NC(=O)CNC(=O)[C@H](CCC(N)=O)NC(=O)[C@H](C)N)C(=O)O` is recorded as 0% (severe intensity; human; 30 mg/kg, 3 days, thrice daily dosing).
`CSCC[C@H](NC(=O)CNC(=O)[C@H](CC(=O)O)NC(=O)[C@@H](NC(=O)[C@@H](NC(=O)[C@@H](NC(=O)CNC(=O)[C@H](CCC(N)=O)NC(=O)[C@H](CCSC)NC(=O)[C@H](CC(=O)O)NC(=O)[C@H](C)NC(=O)[C@H](C)NC(=O)[C@@H](NC(=O)[C@H](CO)NC(=O)[C@@H](N)CC(C)C)[C@@H](C)O)C(C)C)C(C)C)[C@@H](C)O)C(=O)N[C@@H](C)C(=O)N[C@@H](CO)C(=O)NCC(=O)N[C@@H](CC(C)C)C(=O)N[C@@H](CC(=O)O)C(=O)N[C@@H](CCCCN)C(=O)N[C@@H](CC(=O)O)C(=O)N[C@@H](Cc1ccc(O)cc1)C(=O)N[C@@H](CC(C)C)C(=O)N[C@@H](CCCCN)C(=O)N1CCC[C@H]1C(=O)N[C@@H](CC(=O)O)C(=O)N[C@@H](CC(=O)O)C(=O)O` — result for “terminal half-life (t1/2γ)”: 1.61 h (LC-MS/MS; patients, serum; intravenous infusion, 2.50 mg/kg).
`CC(=O)[O-].CN1CCCN2CCN(CCCN(Cc3ccccc3)CC2)CC1.F[P-](F)(F)(F)(F)F.[Co+2]` gave a peak separation of 100 mV (cyclic voltammetry, item: second Co2+/Co3+ couple; acetonitrile).
`C=Cc1cc(O)cc2nc(-c3ccc(O)c([76Br])c3)oc12` has a tissue uptake of 0.17 ± 0.03 %ID/g (female C57BL/6 mouse, lung; 3 h, high dose).
For `Cc1ccccc1CN1CCC(O)(c2ccc(Cl)c(C(F)(F)F)c2)CC1`, the elimination half-life was 3.2 h (female BALB/c mouse, serum; intraperitoneal, 50 mg/kg).
`CC[C@@H](C)[C@@H](NC(=O)[C@@H](CCCCN)NC(=O)[C@H](NC(=O)[C@@H](Cc1c[nH]c2ccccc12)NC(=O)[C@@H](Cc1ccccc1)NC(=O)[C@@H](CCC(N)=O)NC(=O)[C@@H](CC(N)=O)NC(=O)[C@@H](CCCNC(=N)N)NC(=O)[C@@H](CCCNC(=N)N)NC(=O)[C@@H](CCSC)NC(=O)[C@@H](CCCCN)NC(=O)[C@@H](Cc1c[nH]c2ccccc12)NC(=O)[C@@H](CCCCN)NC(=O)[C@@H](CCCCN)NC(=O)CNC(=O)[C@@H](CCCCN)NC(=O)CNC(=O)[C@@H](CCC(N)=O)NC(=O)[C@@H](Cc1c[nH]cn1)NC(=O)[C@H](N)CCCNC(=N)N)[C@H](C)CC)C(=O)N[C@H](CCC(N)=O)C(=O)N[C@H](CCCNC(=N)N)C(=O)O` gave a Papp of 1.88 ×10⁻⁶ cm/s (PAMPA; 2 mg/mL, 5 h, pH 7.4).
For `CC[C@H](C)C(=O)N1CCC(NC(=O)Nc2ccc(OC(F)(F)F)c(F)c2)CC1`, “subjects with any TEAE” read 66.7% (healthy volunteers; oral, 2 mg single dose, 14 (unit not given)).
`CC[C@H](C)[C@H](NC(=O)[C@H](Cc1ccccc1)NC(=O)[C@@H]1CCCN1C(=O)[C@H](CCCCN)NC(=O)[C@H](CCCCN)NC(=O)[C@H](Cc1ccccc1)NC(=O)[C@H](Cc1ccccc1)NC(=O)[C@@H](C)NC(=O)[C@@H](N)Cc1ccc(O)cc1)C(=O)N[C@@H](CC(C)C)C(=O)O` — result for “maximum minute ventilation”: 122 ± 13 mL/min (anesthetized rat; intrathecal, 10 nmol/rat, 1 to 5 min).
`O=C(O)CC[C@H](NC(=O)O[C@@H](CCCCNC(=O)c1ccc([18F])cc1)C(=O)O)C(=O)O` gave a tissue uptake of 3.76 ± 6.48 %ID/g (mouse, PC-3 PIP/flu xenografts, spleen; 30 min).
`COC(=O)C[C@](O)(CCCC(C)(C)OC(C)=O)C(=O)O[C@@H]1C(OC)=C[C@]23CCCN2CCc2cc4c(cc2[C@H]13)OCO4` gave a tissue concentration of 193 ng/mL (CD1 mouse, bone marrow; oral, 1 mg/kg, 2 h).
The Vss of `COc1cc(NC(=O)C(=O)c2c(C)n(Cc3ccc(Cl)cc3)c3ccc(C)cc23)ccn1` is reported as 4.52 L/kg (male cynomolgus monkey, plasma; intravenous, 1 mg/kg, mean).
With `CCCC[C@H]1C(=O)N(C)[C@@H](CCCC)C(=O)N[C@@H](CCCNC(=O)CN2CCN(CC(=O)O)CCN(CC(=O)O)CCN(CC(=O)O)CC2)C(=O)N[C@H](C(=O)NCC(N)=O)CSCC(=O)N[C@@H](Cc2ccc(O)cc2)C(=O)N(C)[C@@H](C)C(=O)N[C@@H](CC(N)=O)C(=O)N2CCC[C@H]2C(=O)N[C@@H](Cc2c[nH]cn2)C(=O)N[C@@H](CC(C)C)C(=O)N(C)CC(=O)N[C@@H](Cc2c[nH]c3ccccc23)C(=O)N[C@@H](CO)C(=O)N[C@@H](Cc2c[nH]c3ccccc23)C(=O)N1C` [gallium-68 labelled] the tumour uptake was 6 ± 1.15 %ID/g (static PET; NOD/SCID mice, CHO-hPD-L1 xenograft, CHO-hPD-L1 tumour; intravenous, 1 h post injection, after two PBS treatments).
Under “log octanol-water partition coefficient”, `CCCCCCCCCCCCCCC(=O)O.O=C1CCCC2C3CCCN4CCCC(CN12)C34` (stereo not shown) is recorded as -0.23 (shake-flask; simulated intestinal fluid; pH 6.8, 25 °C).
`O=C(CN1CCN(c2cc3c(cc2F)c(=O)c(C(=O)O)cn3C2CC2)CC1)Nc1ccc(Cl)cc1` gave a rate constant of 0.00379 min⁻¹ (two-compartment model, item: k12; BALB/c mice, female; iv, 3.75 mg/kg).
`CC(COC(=O)c1ccccc1)OC(=O)C(N)C(C)C` (mixture of isomers) has a half-life of over 30 h (pH 6 or lower).
`CN(C)C(CNC(=O)Nc1cc(C(F)(F)F)ccc1N1CCOCC1)c1ccncc1` (stereo not shown): “serum total CO2” 19 mmol/L (mouse, serum; intraperitoneal, 120 mg/kg single dose).
`CSCC[C@@H]1NC(=O)[C@@H]2CSSC[C@H](NC(=O)[C@H](CO)NC(=O)[C@H](C)N)C(=O)N[C@@H](CCCNC(=N)N)C(=O)N[C@@H]([C@@H](C)O)C(=O)N3CCC[C@H]3C(=O)N[C@@H](CCCCN)C(=O)N[C@@H](CC(=O)O)C(=O)N[C@H]3CSSC[C@H](NC(=O)[C@H](CCCCN)NC(=O)[C@H](CCCNC(=N)N)NC(=O)[C@H](CC(N)=O)NC1=O)C(=O)N[C@@H](CCCCN)C(=O)N[C@H]1CSSC[C@H](NC(=O)[C@@H]4CCCN4C(=O)[C@H](CC(=O)O)NC(=O)[C@H](C)NC3=O)C(=O)N[C@@H](C)C(=O)N[C@@H](CCCCN)C(=O)N[C@@H](CCC(=O)O)C(=O)N[C@@H]([C@@H](C)O)C(=O)NCC(=O)N[C@@H](CSSC[C@@H](C(N)=O)NC(=O)[C@H](CCCNC(=N)N)NC(=O)[C@H](CC(N)=O)NC1=O)C(=O)N1CCC[C@H]1C(=O)N[C@@H](Cc1ccc(O)cc1)C(=O)NCC(=O)N[C@@H](CCCCN)C(=O)N2` has an albumin/globulin ratio of 2.74 (DA rat, pristane-induced arthritis, serum; subcutaneous, 0.1 mg/kg every other day, end of 21-day trial).
`Cc1ccc(/C=C/C(=O)O)cc1-c1cc2c(cc1C)C(C)(C)CCC2(C)C` has a Tmax of 2 h (rat Sprague-Dawley male, plasma; oral, 100 mg/kg, sesame oil).
`CC(C)(C)c1ccc(COc2cc3c(=O)c(C(=O)NCCNCCO)cn(Cc4ccccc4)c3cc2Cl)cc1` gave a microsomal CLint of under 11.6 µL/min/mg (metabolic stability; male CD-1 mouse, liver microsomes; 1 µM).
